Measured values of several laboratories.
Every numbered part comes from another study and shows a few of its results, in no order. Changes are numbered by the printed parent chain.

Sample 1
Target: Interferon regulatory factor 7, full length, phosphomimetic (IRF7, Homo sapiens, UniProt Q92985, residues 1-503, S471D/S472D/S475D/S476D/S477D/S483D/S484D/S487D)
Method: protein-binding microarray
Form: double-stranded DNA, one strand shown
Sample: in vitro
Tested at: 2200 nM top
Notes: 60-bp whole probe
Added: salmon DNA 0.4 mg/ml
Relative to: random background probes
Reading: higher = stronger binding
All sequences stand within: GCCTAGCAC … GTCTTGATTCGCTTGACGCTGCTG
Construct (chain): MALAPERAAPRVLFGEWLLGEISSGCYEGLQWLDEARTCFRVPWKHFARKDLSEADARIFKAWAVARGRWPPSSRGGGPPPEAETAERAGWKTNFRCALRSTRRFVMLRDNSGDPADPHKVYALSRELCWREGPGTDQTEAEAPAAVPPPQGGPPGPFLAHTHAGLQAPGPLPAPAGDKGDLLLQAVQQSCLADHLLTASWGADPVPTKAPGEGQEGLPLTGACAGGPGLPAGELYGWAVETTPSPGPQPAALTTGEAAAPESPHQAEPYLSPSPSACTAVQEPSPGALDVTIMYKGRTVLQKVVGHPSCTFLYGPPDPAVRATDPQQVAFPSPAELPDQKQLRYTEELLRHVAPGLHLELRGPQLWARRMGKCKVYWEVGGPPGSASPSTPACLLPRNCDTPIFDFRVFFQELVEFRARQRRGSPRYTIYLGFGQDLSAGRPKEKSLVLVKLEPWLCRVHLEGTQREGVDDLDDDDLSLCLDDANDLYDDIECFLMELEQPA
`ATAGGTTTCGGTATCGGTTAGTGCTAG`: “fitted relative affinity” 7.4 z-score.
For `AATCATTCACCTGTCGTTGAGTGCTAG`, “fitted relative affinity” read 1.06 z-score.
`GACGATTTCAGTATCGAGTCGTGCTAG`: “fitted relative affinity” 1.46 z-score.
Under “fitted relative affinity”, `GCCGGTATCCTTATCCTGACGTGCTAG` is recorded as 0.97 z-score.
Under “fitted relative affinity”, `GACGGTTTGCTTCTCCTGACGTGCTAG` is recorded as 1.75 z-score.
`TTAGAAGTGAGTATCGATTAGTGCTAG`: “fitted relative affinity” -0.359 z-score.
Under “fitted relative affinity”, `TTAGGACTGGGGATTCGGTTAGTGCTA` is recorded as 0.0795 z-score.
`TTAGAAGTGAGTCTCGATTAGTGCTAG` — result for “fitted relative affinity”: -0.383 z-score.
`TTAGGTCTCCTTTTCCTTAAGTGCTAG` — result for “fitted relative affinity”: 1.5 z-score.
`TTAAAACTGGGGTATCGATTAGTGCTA`: “fitted relative affinity” -0.0161 z-score.
Under “fitted relative affinity”, `TACGGTATCGGTCTCGGGACGTGCTAG` is recorded as 0.433 z-score.

Sample 2
Target: Ras GTPase-activating protein-binding protein 1, C-terminal RGG region (G3BP1, Homo sapiens, UniProt Q13283)
Chain of UniProt Q13283 (whole entry, looked up): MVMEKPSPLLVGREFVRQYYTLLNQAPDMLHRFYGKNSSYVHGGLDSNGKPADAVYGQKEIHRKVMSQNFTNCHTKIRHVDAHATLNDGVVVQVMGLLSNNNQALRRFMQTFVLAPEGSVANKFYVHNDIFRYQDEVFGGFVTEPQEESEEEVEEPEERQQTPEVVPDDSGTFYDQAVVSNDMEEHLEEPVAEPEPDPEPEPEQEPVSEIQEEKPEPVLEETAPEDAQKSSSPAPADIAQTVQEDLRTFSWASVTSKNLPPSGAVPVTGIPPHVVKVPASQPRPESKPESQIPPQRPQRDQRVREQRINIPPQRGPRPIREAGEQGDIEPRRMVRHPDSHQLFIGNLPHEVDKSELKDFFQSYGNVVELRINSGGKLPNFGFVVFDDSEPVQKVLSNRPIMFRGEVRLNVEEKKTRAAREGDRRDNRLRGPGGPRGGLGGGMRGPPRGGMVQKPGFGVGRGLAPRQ
Method: RNA Bind-n-Seq
Form: RNA
Sample: in vitro
Tested at: 1 µM
Notes: whole 134-nt RNA, ends assumed
Added: 150 mM KCl
Relative to: input library
Reading: higher = stronger binding
All sequences stand within: GGGAGUUCUACAGUCCGACGAUC … UGGAAUUCUCGGGUGUCAAGG
For `UGGGAGGUGGAUUUUGUUUAUUUUUUUAGCUCAUUUCCAGGGGUGGGAAUUUUUUUUUAAUAUCUGUCAUGAAUAAAGUUGUUUUUGAAA`, the log2 enrichment was 2.67.
`UCCUCAAGUCCUGUGCUACACAUCGUAUGUACCGAAUCGGUGGGGUGGUGGAAAGUAUUAUGUUACGCCGUUCGGAUCUGCACUUCCAGC` has a log2 enrichment of -0.67.
With `UCAAGUCCUGUGCUACACAUCGUAUGUACCGAAUCGGUUUGGUGGAAAAAAAGGAAAGUAUUAUGUUACGCCGUUCGGAUCUGCACUUCC` the log2 enrichment was -1.23.
`UCAAGUCCUGUGCUACACAUCGUAUGUACCGAAUCGGUGGAAAAAGGAAAAAGGAAAGUAUUAUGUUACGCCGUUCGGAUCUGCACUUCC` has a log2 enrichment of -1.29.
`UAGUAACAGGGGUGAAGAUGCCUUUUGUGAUCCUGAAGAUGAAUGGGAACCCGACAUUACAGAUGCACCAGUUUCUUCACUUUCUAGAAG` has a log2 enrichment of -2.18.
For `UGUGCUACACAUCGUAUGUACCGAAUCGGGGUUUUUUUGGGGUUUUUUUGGGGUUUUUGGGGAAAGUAUUAUGUUACGCCGUUCGGAUCU`, the log2 enrichment was -0.0495.
`GCAGGAAGUAAAAACGAAUGGAAAUGCUUCGGAUAGUGGCAGGGGUGGGGGUUGCUAAGGAAAGGGUGGGAUGGGAGUGGGUAAAGAGUU` has a log2 enrichment of 1.9.
`CUCAAGUCCUGUGCUACACAUCGUAUGUACCGAAUCGGGCCGGGGCCGGCCGGGAAAGUAUUAUGUUACGCCGUUCGGAUCUGCACUUCC` gave a log2 enrichment of -1.11.
The log2 enrichment of `GUCCUGUGCUACACAUCGUAUGUACCGAAUCGGGUUUUUUUGGGAGGGUUUUUUUGGGAAAGUAUUAUGUUACGCCGUUCGGAUCUGCAC` is reported as -0.227.
The log2 enrichment of `CCUCAAGUCCUGUGCUACACAUCGUAUGUACCGAAUCGGGGCGGCGGGGCGGAAAGUAUUAUGUUACGCCGUUCGGAUCUGCACUUCCAG` is reported as -0.667.
`CUCAAGUCCUGUGCUACACAUCGUAUGUACCGAAUCGGGUUGGGGUUGGGUUGGAAAGUAUUAUGUUACGCCGUUCGGAUCUGCACUUCC` has a log2 enrichment of -0.198.
For `CAAGUCCUGUGCUACACAUCGUAUGUACCGAAUCGGGGUGGGGUGGGGAAAGGGGAAAGUAUUAUGUUACGCCGUUCGGAUCUGCACUUC`, the log2 enrichment was 2.61.
For `GUCCUGUGCUACACAUCGUAUGUACCGAAUCGGGGAGGGGAAAGGGGAAAAAAAGGGGAAAGUAUUAUGUUACGCCGUUCGGAUCUGCAC`, the log2 enrichment was 1.25.
For `CACAGACAACACGCACCCACACAGACAAAGAGGGAAGGGGUUGGGAUGGGGACAGGGUGCACAGCAGGGCGGGGUAGGACCCCAGCCCCU`, the log2 enrichment was -0.265.

Sample 3
Target: ATF3, bZIP domain (human)
Method: DHFR protein complementation
Sample: yeast
Notes: single substitutions, most at no-binding floor
Relative to: wild-type JUN-FOS pair
Reading: higher = stronger binding
Parent: JUN, bZIP domain (human); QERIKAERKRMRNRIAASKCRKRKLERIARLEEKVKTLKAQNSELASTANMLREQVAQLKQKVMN; partner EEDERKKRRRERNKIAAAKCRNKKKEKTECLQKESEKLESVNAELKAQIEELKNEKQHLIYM
For `A29R`, the binding fitness was -0.157 natural log.
With `L45R` the binding fitness was -1.3 natural log.
`Q55E` gave a binding fitness of 0.0188 natural log.
For `A40R`, the binding fitness was -0.0689 natural log.
With `L31E` the binding fitness was -0.308 natural log.
For `E54G`, the binding fitness was -0.173 natural log.
For `S43C`, the binding fitness was -0.133 natural log.
For `N42S`, the binding fitness was -0.477 natural log.
The binding fitness of `Q41L` is reported as -0.288 natural log.

Other studies, line by line
`PhoQ, residues 284 288 289 292 302 303 SQSLSM` has a fold induction of 7.8 (PhoP, residues 12 14 15 18 19 IFFTR (Escherichia coli, UniProt P23836); Sort-seq, item: YFP reporter; E. coli; PhoQ-PhoP variant library, added: 10 µM Mg2+; relative to: high Mg2+ state, higher = stronger signaling).
